Assay results collected from several papers.
Protocols differ between the studies behind these lines. ± marks the error that the study gave.

For `COC(=O)CCSc1nc2n(n1)C(c1cccc(OC)c1)C(C(=O)Nc1cncc(C)c1)=C(C)N2` (centres unmarked), the inhibition was 74.8% (MTOR (Homo sapiens, UniProt P42345); enzyme activity, inhibitor, TR-FRET; 0.1 µM).
For `O=C(c1ccc(SCCF)cc1)C1CCN(C2Cc3ccccc3CC2O)CC1` (single isomer, unassigned; (-)), the selectivity ratio was 13.4 (SIGMAR1 (Cavia porcellus, UniProt Q60492); radioligand competition; added: (+)-[3H]pentazocine; reference: Ki sigma-1 over Ki VAChT).
For `O=C(COc1ccccc1)N[C@@H](Cc1cn(CCNC(=O)c2ccc(S[C@@H]3O[C@H](CO)[C@H](O)[C@H](O)[C@H]3O)cc2)nn1)C(=O)NCCO`, the −TΔS was 4.13 ± 0.359 kcal/mol (lecA (Pseudomonas aeruginosa, UniProt Q05097); binding, isothermal titration calorimetry; 25 °C).
With `CC[C@H](C)[C@@H]1NC(=O)[C@H](Cc2ccc(O)cc2)NC(=O)[C@@H](N)Cn2cc(nn2)C[C@@H](C(=O)N2CCC[C@H]2C(=O)N[C@@H](CC(C)C)C(=O)NCC(N)=O)NC(=O)[C@H](CC(N)=O)NC(=O)[C@H](CCC(N)=O)NC1=O` the Emax was 80.4% (Oxytocin receptor (OXTR, Homo sapiens, UniProt P30559); inositol phosphate, agonist; HEK293).
`[11CH3]Oc1ccc(-n2nc(OCCCN3CCCCC3)ccc2=O)cc1` — result for “non-specific binding share”: about 45% (Sigmar1 (Mus musculus, UniProt O55242); radiotracer; mouse BALB/c, brain; dose not given, added: self-blocking 12.5 mg/kg).
`CC[C@H](C)[C@H](NC(C)=O)C(=O)N[C@H]1CSSC[C@@H](C(=O)N[C@H](C(N)=O)[C@@H](C)O)NC(=O)[C@H](CCCNC(=N)N)NC(=O)[C@H](Cc2c[nH]cn2)NC(=O)[C@@H]2CCCN2C(=O)CNC(=O)[C@H](Cc2c[nH]c3ccccc23)NC(=O)[C@H](CC(=O)O)NC(=O)[C@H](CCC(N)=O)NC(=O)[C@H](Cc2cn(C)c3ccccc23)NC(=O)[C@H](C(C)C)NC1=O` has a kon of 750000 ± 80000 M⁻¹ s⁻¹ (Complement C3, C3b fragment (Homo sapiens, UniProt P01024); SPR; pH 7.4, 25 °C).
`CNc1ccccc1C(=O)O[C@H]1C[C@H](n2cnc3c(N)ncnc32)O[C@@H]1COP(=O)(O)OP(=O)(O)O` has a donor-acceptor distance of 18.6 Å (Unconventional myosin-Va (Gallus gallus, UniProt Q02440, D297C/G292C/I296C/S293C/V295G); FRET; compound complex; 15 °C, added: 2 mM MgCl2).
For `C=C1CCN2C(=O)COc3cccc(c3)C(CCc3ccc(OC)c(OC)c3)OC(=O)C3CCCCN3C(=O)C(=O)C(C)(C)COC(=O)C(C)NC(=O)C2C1` (centres unmarked), the recruitment was 0% (FKBP1A/MAPRE1 (Homo sapiens, UniProt P62942+Q15691); FKBP12-MAPRE1 proximity, TR-FRET; reference: DMSO).
`CCCCC[N+](CCCCC)(CCCCC)CCCCC`: “increase of block” 10% (KCNK18 (Homo sapiens, UniProt Q7Z418); ion current, blocker, inside-out patch clamp; Xenopus oocytes; concentration not given, per 100 mV voltage change).
With `COc1ccc(CCCN[C@H]2CCC[C@@H]2CN[C@@H]2CCC[C@H]2CNCCCCN[C@@H]2CCC[C@H]2CN)cc1` the selectivity ratio was 2.3 (KDM1B (Homo sapiens, UniProt Q8NB78); peroxidase-coupled; reference: Ki for KDM1B over Ki for LSD1).
`O=c1c2sccc2n(CC2COc3ccccc3O2)c(=O)n1O` (centres unmarked) gave a kcat of 2.33 ± 0.15 s⁻¹ (Flap endonuclease 1 (Homo sapiens, UniProt P39748); inhibitor; added: double-flap substrate DF1).

For quick reference, copied from above:
With `COc1ccc(CCCN[C@H]2CCC[C@@H]2CN[C@@H]2CCC[C@H]2CNCCCCN[C@@H]2CCC[C@H]2CN)cc1` the selectivity ratio was 2.3 (KDM1B (Homo sapiens, UniProt Q8NB78); peroxidase-coupled; reference: Ki for KDM1B over Ki for LSD1).
`O=c1c2sccc2n(CC2COc3ccccc3O2)c(=O)n1O` (centres unmarked) gave a kcat of 2.33 ± 0.15 s⁻¹ (Flap endonuclease 1 (Homo sapiens, UniProt P39748); inhibitor; added: double-flap substrate DF1).
